Assay results gathered from unrelated publications.
Lines come from different studies, so protocols differ. Numbers after ± are the reported error.

Structure (SMILES) | cell line | test | test system | setting | IC50 [µM]
NS(=O)(=O)c1ccc(Cc2c(-c3ccc(F)c(F)c3)[nH]n(-c3nc(C(=O)O)cs3)c2=O)cc1 | HEK293T | lactate production | – | 1 h | > 50
CCN(CCO)CCCC(C)Nc1ccnc2cc(Cl)ccc12 (stereo not shown) | human PBMC | qRT-PCR, refers to: MX1 mRNA | – | with: ssRNA | 2.4 ± 0.9
C=CC(=O)N1CCC[C@@H](c2ccc(C(N)=O)c3[nH]ccc23)C1 | TMD8 wild-type | calcium flux, FLIPR | – | 2 h preincubation, with: anti-IgM | > 1
COc1c(Cl)cccc1Nc1c(-c2ccncc2OC[C@@H]2COCCO2)[nH]c2c1C(=O)NCC2 | NCI-H2170 HER2-amplified | cell proliferation, CellTiter-Glo | – | – | 0.0167
CCN1[C@@H](C(=O)NC23CCC(C(=O)O)(CC2)CC3)[C@H](c2cccc(Cl)c2F)[C@]2(C(=O)Nc3cc(Cl)ccc32)C12CCCCC2 | well-differentiated liposarcoma cells (MDM2 amplified) | cell proliferation, alamarBlue | – | 72 h | 0.104
N#Cc1ccc(Oc2ccc3c(c2)COB3O)cc1 | PBMC | cytokine release, MSD, refers to: IL-2 | – | 24 h, with: anti-CD3ε/anti-CD28 | 0.34
CC(=O)c1c(O)c(C)c(O)c2c1OC1=CC(=O)C(C(C)=O)C(=O)C12C (single isomer, unassigned; (+)) | hepatocytes, iPSC-derived, line L1 | cell viability | – | 48 h | 7
Cc1nc(Nc2ncc(C(=O)Nc3c(C)cccc3Cl)s2)cc(N2CCN(CCO)CC2)n1 | Capan-2 | cell viability, MTT | – | mutant KRAS primary | 1.52
CC(=O)[C@]1(O)Cc2c(O)c3c(c(O)c2[C@@H](O[C@H]2C[C@H](N)[C@H](O)[C@H](C)O2)C1)C(=O)c1ccccc1C3=O | primary human intestinal proliferative cells | barrier formation (TEER) | – | 48 h | 1.75
O=C(O)CCCc1cc2cc(Cl)ccc2n1S(=O)(=O)c1ccc2ncsc2c1 | LX-2 hepatic stellate cells | collagen production, ELISA, refers to: Col1a1 | – | 48 h, serum-free, with: 2.5 ng/mL TGF-β1 | 14.3 ± 3.14
O=C(Nc1ccc2c(c1)B(O)OC2)Nc1ccc(F)c(C(F)(F)F)c1 | HFF | cell growth | – | – | > 100
Cc1c(C)c2c(c(C)c1O)CCC(C)(COc1ccc(CC3SC(=O)NC3=O)cc1)O2 (stereo not shown) | hepatocytes, iPSC-derived, line W3 | cell viability, RealTime-Glo MT | – | 24 h, differentiation day 23 | 69
CCCCN1C[C@H](O)[C@@H](O)[C@@H](O)[C@H]1CO | sample BC patient fibroblasts | Gb3 level lowering, LC-MS/MS, refers to: Gb3 d18:1/22:0 | – | 216 h | 34.1
CCO[C@H](COc1ccc(C(F)(F)F)cc1)CSc1ccc(OCC(=O)O)c(C)c1 | LX-2 hepatic stellate cells | collagen production, ELISA, refers to: Col1a1 | – | 48 h, serum-free, with: 2.5 ng/mL TGF-β1 | > 50
O=C(O)COCC(=O)O | hepatocytes, iPSC-derived, line L1 | cell viability, RealTime-Glo MT | – | 72 h, differentiation day 23 | 5360
C=CC(=O)Nc1cc(Nc2nccc(-c3cn(C)c4ccccc34)n2)c(OC)cc1N(C)CCN(C)C | Ba/F3 EGFR D770-N771insNPG | cell proliferation | – | 72 h | 0.111 ± 0.0152
C=CC(=O)Nc1cccc(Oc2nc(Nc3ccc(N4CCN(C)CC4)cc3)nc3ccoc23)c1 | TMD8 wild-type | calcium flux, FLIPR | – | 4 h preincubation, with: anti-IgM | > 1

Structure (SMILES) | cell line | test | test system | setting | IC50 [µM]
Cc1cc(NC(=O)Nc2ccc3c(c2)OC(F)(F)O3)cc(C(F)(F)F)n1 | HFF | cell growth | – | – | 42
C[C@H]1[C@H](OC(=O)CCC(=O)O)O[C@@H]2O[C@@]3(C)CC[C@H]4[C@H](C)CC[C@@H]1[C@@]24OO3 | primary AML blasts 1 | cell viability | human | 96 h | 4.05
CC1(C)CCC(CN2CCN(c3ccc(C(=O)NS(=O)(=O)c4ccc(NCC5CCOCC5)c([N+](=O)[O-])c4)c(Oc4cnc5[nH]ccc5c4)c3)CC2)=C(c2ccc(Cl)cc2)C1 | CD19+ B cells from AML patients | cell viability, high-throughput flow cytometry | – | – | 0.000847
O=C(CNC(=O)c1cccc2ccccc12)Nc1ccccc1Oc1cccc(O)c1 | SK-N-BE(2)-C | cell growth, inhibitor | – | – | 0.485
N#CC[C@H](C1CCCC1)n1cc(-c2ncnc3[nH]ccc23)cn1 | PBMC | cytokine release, MSD, refers to: IL-4 | – | 24 h, with: anti-CD3ε/anti-CD28 | 0.024
Cc1c(C(=O)O)ccc2c3n(nc12)[C@@H]1[C@H](C3)N(CC2CC2)[C@@]2(C(=O)Nc3cc(Cl)ccc32)[C@H]1c1cccc(Cl)c1F | A204 | cell growth, alamarBlue | – | unbound, 4.5% of total | 0.00034
CCOc1cc([C@@H](CS(C)(=O)=O)N2C(=O)c3cccc(NC(C)=O)c3C2=O)ccc1OC | PBMC | cytokine release, MSD, refers to: IL-4 | – | 24 h, with: anti-CD3ε/anti-CD28 | 0.47
Cc1nc2ccc(NC(=O)CCNC(=O)CCCc3ccc(CC(C(=O)O)C(=O)O)cc3)cc2s1 | HEK293T | lactate production | – | 1 h | > 50
O=C(CNC(=O)c1cccc2ccccc12)Nc1ccccc1Oc1ccccc1 | SK-N-BE(2)-C | cell growth, inhibitor | – | – | 0.325
CCO[C@@H](Cc1ccc(OCCn2c(C)ccc2-c2ccc(SC)cc2)cc1)C(=O)O | LX-2 hepatic stellate cells | collagen production, ELISA, refers to: Col1a1 | – | 48 h, serum-free, with: 2.5 ng/mL TGF-β1 | 12.1 ± 6.55
O=C1C[C@@](c2ccc(N3CCOCC3)cc2)(c2ccsc2)NC(=O)C1Sc1ccccc1Cl (stereo partly shown) | HEK293T | lactate production | – | 1 h | 4.6
CC#CC(=O)N1CCC[C@H]1c1nc(-c2ccc(C(=O)Nc3ccccn3)cc2)c2c(N)nccn12 | TMD8 wild-type | calcium flux, FLIPR | – | 2 h preincubation, with: anti-IgM | 0.022
COc1ccc(F)cc1C(=O)NCc1ccc(-c2nn([C@@H](C)C(F)(F)F)c(N)c2C(N)=O)cc1 | Rec1 | refers to: sCD40L | – | 24 h | 0.0061 ± 0.0001
C[C@H]1CN(C2COC2)CCN1c1ccc(Nc2cc(-c3ccnc(N4CCn5c(cc6c5CC(C)(C)C6)C4=O)c3CO)cn(C)c2=O)nc1 | TMD8 wild-type | calcium flux, FLIPR | – | 4 h preincubation, with: anti-IgM | 0.0091
Cc1cnc(Nc2ccc(OCCN3CCCC3)cc2)nc1Nc1cccc(S(=O)(=O)NC(C)(C)C)c1 | HEL 92.1.7 JAK2 V617F | cell growth, CCK-8 | – | – | 0.87
C=CC(=O)N1CCC([C@@H]2CCNc3c(C(N)=O)c(-c4ccc(Oc5ccccc5)cc4)nn32)CC1 | TMD8 wild-type | calcium flux, FLIPR | – | 1 h preincubation, with: anti-IgM | 0.035
O=C(Nc1c(Cl)cncc1Cl)c1ccc(OC(F)F)c(OCC2CC2)c1 | PBMC | cytokine release, MSD, refers to: IL-2 | – | 24 h, with: anti-CD3ε/anti-CD28 | 0.0018

Excerpt of the above:
Structure (SMILES) | cell line | test | test system | setting | IC50 [µM]
O=C(CNC(=O)c1cccc2ccccc12)Nc1ccccc1Oc1cccc(O)c1 | SK-N-BE(2)-C | cell growth, inhibitor | – | – | 0.485
COc1ccc(F)cc1C(=O)NCc1ccc(-c2nn([C@@H](C)C(F)(F)F)c(N)c2C(N)=O)cc1 | Rec1 | refers to: sCD40L | – | 24 h | 0.0061 ± 0.0001
O=C1C[C@@](c2ccc(N3CCOCC3)cc2)(c2ccsc2)NC(=O)C1Sc1ccccc1Cl (stereo partly shown) | HEK293T | lactate production | – | 1 h | 4.6
